Experimental data from different studies.
Each numbered part is a random draw from the data of one study; scales do not carry over between parts.

Block 1
Target: Histone acetyltransferase KAT6A, both winged helices, GST fusion (KAT6A, Homo sapiens, UniProt Q92794, residues 1-181)
Method: protein binding microarray
Molecule type: double-stranded DNA, one strand shown
Sample: in vitro
Tested at: not given
Setting: 8-mer, flanks averaged, mean of 2 arrays, mostly near background
Reference: not given
Reading: higher = stronger binding
Target sequence (chain): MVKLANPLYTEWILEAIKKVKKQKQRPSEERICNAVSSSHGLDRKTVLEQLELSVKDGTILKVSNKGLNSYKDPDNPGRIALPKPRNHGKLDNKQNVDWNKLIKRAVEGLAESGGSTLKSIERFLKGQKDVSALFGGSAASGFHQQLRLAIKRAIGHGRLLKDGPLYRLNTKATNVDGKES
Sequence | E-score
GACGGCTC | 0.218
CTGCTCAA | -0.162
AGGCGGTC | 0.136
CGCCCGAG | 0.108
CAAAGCAG | -0.133
GCGGAGGA | 0.0954
GTTGGAAA | -0.112
ACTATAGA | -0.201

Block 2
Target: Interferon regulatory factor 7, full length, phosphomimetic (IRF7, Homo sapiens, UniProt Q92985, residues 1-503, S101K/S471D/S472D/S475D/S476D/S477D/S483D/S484D/S487D)
Method: protein-binding microarray
Molecule type: double-stranded DNA, one strand shown
Sample: in vitro
Tested at: 250 nM
Setting: 60-bp whole probe
With: salmon DNA 0.4 mg/ml
Reference: random background probes
Reading: higher = stronger binding
Shared flanks, not repeated: GCCTAGCAC … GTCTTGATTCGCTTGACGCTGCTG
Target sequence (chain): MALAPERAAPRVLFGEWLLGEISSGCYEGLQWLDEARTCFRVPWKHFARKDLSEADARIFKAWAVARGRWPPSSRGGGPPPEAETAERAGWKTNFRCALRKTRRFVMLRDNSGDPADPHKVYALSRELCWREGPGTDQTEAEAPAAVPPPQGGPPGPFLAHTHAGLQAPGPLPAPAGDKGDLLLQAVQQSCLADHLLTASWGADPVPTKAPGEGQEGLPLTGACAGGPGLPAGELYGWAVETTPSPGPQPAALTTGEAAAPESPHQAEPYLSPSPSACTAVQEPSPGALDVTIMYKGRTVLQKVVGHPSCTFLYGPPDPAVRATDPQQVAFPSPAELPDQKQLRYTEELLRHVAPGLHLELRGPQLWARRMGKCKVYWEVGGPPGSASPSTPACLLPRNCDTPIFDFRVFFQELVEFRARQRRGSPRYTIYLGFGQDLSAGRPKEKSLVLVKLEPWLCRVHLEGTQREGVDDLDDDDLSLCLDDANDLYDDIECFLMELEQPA
Sequence | log fluorescence
GACGGTCTCGGTAGCGGGACGTGCTAG | -0.356 z-score
CGTTTTTCATTTTTTTTTTCGTGCTAG | 4.87 z-score
TTAGGACTGGACTTGCGGTTAGTGCTA | -0.334 z-score
CTTTGACTCTTTCTGTCAGTGTGCTAG | 0.542 z-score
TTAGGTATGGGGTATCGGTTAGTGCTA | -0.0688 z-score
GACGATTTCGGACTGGAGACGTGCTAG | 0.22 z-score
GACGATTTCGGTTTCGGGACGTGCTAG | 7.28 z-score
TTCTATATTTGCTTCAGGTTGTGCTAG | 0.429 z-score

Block 3
Target: UBE2J1 UBC core domain (UniProt Q9Y385)
Method: yeast two-hybrid
Sample: yeast
Setting: mostly zero background
Reference: not given
Reading: higher = stronger interaction
B1: RNF175 RING domain (UniProt Q8N4F7); chain LPTRSLSDNICAVCGQKIIVELDEEGLIENTYQLSCNHVFHEFCIRGWCIVGKKQTCPYCKEKVDLKRMIS
B2: RNF43 RING domain (UniProt Q68DV7); chain SGSSCSSAPVCAICLEEFSEGQELRVISCLHEFHRNCVDPWLHQHRTCPLCMFNITEGDSFS
B3: MSL2 RING domain (UniProt Q9HCI7); chain LLPYFRQSLSCCVCGHLLQDPIAPTNSTCQHYVCKTCKGKKMMMKPSCSWCKDYEQFEENKQ
B4: RNF5 RING domain (UniProt Q99942); chain ERGGAGATFECNICLETAREAVVSVCGHLYCWPCLHQWLETRPERQECPVCKAGISREKVVP
B5: RNF4 RING domain (UniProt P78317); chain TGLRPSGTVSCPICMDGYSEIVQNGRLIVSTECGHVFCSQCLRDSLKNANTCPTCRKKINHKRYHP
B6: TRIM35 RING domain (UniProt Q9UPQ4); chain PSRSFKEELLCAVCYDPFRDAVTLRCGHNFCRGCVSRCWEVQVSPTCPVCKDRASPADLRT
Construct (chain): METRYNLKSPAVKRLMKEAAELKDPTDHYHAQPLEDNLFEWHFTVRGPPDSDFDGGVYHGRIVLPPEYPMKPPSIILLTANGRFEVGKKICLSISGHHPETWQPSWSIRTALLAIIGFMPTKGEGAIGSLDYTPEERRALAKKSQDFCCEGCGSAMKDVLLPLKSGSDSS
Sequence | lacZ reporter activity
B1 (RNF175 RING domain) | 0
B2 (RNF43 RING domain) | 0
B3 (MSL2 RING domain) | 0
MANWVFCNRCFQPPHRTSCFSLTNCGHVYCDACLGKGKKNECLICKAPCRTVLLSK (RNF212 RING domain (UniProt Q495C1)) | 0
B4 (RNF5 RING domain) | 0
FLKKLEQSFMCVCCQELVYQPVTTECFHNVCKDCLQRSFKAQVFSCPACRHDLGQNYIMI (UHRF2 RING domain (UniProt Q96PU4)) | 0
B5 (RNF4 RING domain) | 0
B6 (TRIM35 RING domain) | 0

Single results of other studies
Sequence | target | read-out | molecule type | tested at | endpoint | value
SSDLRSWTF | HLA class I histocompatibility antigen, A alpha chain, allele A*80:01 (Homo sapiens, UniProt P04439) | peptide-MHC binding | peptide | concentration not given | binding | inactive
